Measurements collected from several papers.
Every numbered part comes from another study and shows a few of its results, in no order.

Sample 1
Target: Replicase polyprotein 1ab, main protease (rep, Severe acute respiratory syndrome coronavirus 2, UniProt P0DTD1)
Observed: enzyme activity
Action: inhibitor
Tested at: 20 µM
Setting: primary screen
SMILES	inhibition
COC(=O)C1=C(C)NC(C)=C(C(=O)O[C@H]2CCN(Cc3ccccc3)C2)[C@H]1c1cccc([N+](=O)[O-])c1	26.5%
CC[n+]1c(-c2ccccc2)c2cc(N)ccc2c2ccc(N)cc21	42.1%
N#Cc1c(-c2ccccc2)cc(-c2cc(Br)ccc2O)[nH]c1=O	31.6%
CCCCCCCCCCCCCCCC[N+](C)(C)Cc1ccccc1	55.8%

Sample 2
Target: Replicase polyprotein 1ab, nsp13 helicase (rep, Severe acute respiratory syndrome coronavirus 2, UniProt P0DTD1)
Action: inhibitor
Tested at: 20 µM
Compound	inhibition [%]
Cc1nc(N)sc1CCN	-1.76
CN(C)CC/C=C1\c2ccccc2CSc2ccccc21	4.37
CCO[C@@H]1OC(=O)C[C@@H]1NC(=O)[C@@H]1CCCN1C(=O)[C@@H](NC(=O)c1ccc(N)c(Cl)c1)C(C)(C)C	3.7
Cc1c(C(=O)NCc2cccnc2)nn(-c2ccc(Cl)cc2Cl)c1-c1ccc(Cl)cc1	-3.15
C[C@H]1[C@H](C)CC[C@]2(C(=O)O)CC[C@]3(C)C(=CC[C@@H]4[C@@]5(C)CC[C@H](O)C(C)(C)[C@@H]5CC[C@]43C)[C@H]12	2.56
OC(CCN1CCCCC1)(c1ccccc1)C1C[C@@H]2C=C[C@H]1C2 (stereo partly drawn)	8.34
Nc1ncnc2c1ncn2C1CCCO1 (stereo not drawn)	6.21
Cc1ccc(F)c(NC(=O)Nc2ccc(-c3cccc4[nH]nc(N)c34)cc2)c1	1.89
O=C(Nc1cc(C(F)(F)F)cc(C(F)(F)F)c1)c1cnc(Cl)nc1C(F)(F)F	2.97
CCN(CC)CCN(Cc1ccc(-c2ccc(C(F)(F)F)cc2)cc1)C(=O)Cn1c(SCc2ccc(F)cc2)nc(=O)c2c1CCC2	11.4
C[C@H](NC[C@H](O)CP(=O)(O)CC1CCCCC1)c1ccc(Cl)c(Cl)c1	0.83
CCCC[C@]1(CC)CS(=O)(=O)c2cc(CNC(CC(=O)O)CC(=O)O)c(OC)cc2[C@@H](c2ccccc2)N1	4.16
CO/N=C1\CN(c2nc3c(cc2F)c(=O)c(C(=O)O)cn3C2CC2)CC1CN (stereo not drawn)	9.34
CCN(CC)C(=O)c1ccc(C2=CC3(CCNCC3)Oc3cccc(O)c32)cc1	1.73
COc1ccc(CNC(=O)c2cc(-c3cncc(C)c3)ncc2-c2nccs2)nc1OC	4.42
CCS(=O)(=O)N(Cc1cccnc1)c1cccc(-c2ccc(C#N)cc2)c1	0.91
O=C(O)c1cc(C(=O)O)c(C(=O)N(Cc2cccc(Oc3ccccc3)c2)[C@H]2CCCc3ccccc32)cc1C(=O)O	8.44
CC(C)c1ccc(NC(=O)c2cccs2)c(-c2nc3ccccc3[nH]c2=O)c1	25.6
CCCCNC(=O)[C@@H]1Cc2ccccc2N1C(=O)[C@@H](N)CC	2.74
C[C@H]1N=C(N(C)C)N=C(N)N1	8.06
O=C1CCc2cc(OCCCCc3nnnn3C3CCCCC3)ccc2N1	3.73

Sample 3
Target: Centromere-binding protein 1, full length, His-tagged (CBF1, Saccharomyces cerevisiae, UniProt P17106, residues 1-351)
Chain of UniProt P17106 (whole entry, looked up): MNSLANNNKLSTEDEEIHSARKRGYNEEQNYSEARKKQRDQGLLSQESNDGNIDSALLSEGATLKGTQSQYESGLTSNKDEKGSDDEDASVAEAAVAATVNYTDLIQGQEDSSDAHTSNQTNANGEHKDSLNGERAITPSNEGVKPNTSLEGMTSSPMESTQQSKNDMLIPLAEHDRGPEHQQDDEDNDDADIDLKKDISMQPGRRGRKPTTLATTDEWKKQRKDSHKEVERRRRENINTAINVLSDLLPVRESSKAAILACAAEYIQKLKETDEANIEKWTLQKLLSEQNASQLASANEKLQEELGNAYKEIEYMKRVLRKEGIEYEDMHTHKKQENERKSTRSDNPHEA
Method: competition protein-binding microarray
Molecule type: double-stranded DNA, one strand shown
Matrix: in vitro
Tested at: 2 µM
Setting: whole 60-bp probe, lowest competitor level
Together with: Pho4 competitor, 0.05 µM
Direction: higher = stronger binding
All sequences stand within: … GTCTTGATTCGCTTGACGCTGCTG
Sequence	fluorescence intensity
GTATTTTGTAAACAGCACGTGATGGACAGGGCGCAG	4380 a.u.
AATAAATACGAGCATCACAATACCCCAAGAGGAGAA	73.5 a.u.
AAATTACTAAGTTGGGGCGTGGGTGACGCCGTATGA	66.7 a.u.
CTTCTGTAAATTTTTCACGTGTCCTGACGCGCCCCG	940 a.u.
CGGGGTTAAGTTTTTCACGTGGTGTGCTTGCAGCAG	742 a.u.
GTTGAAGTCAAGTTGAACGTGATGGGATACTGATTT	173 a.u.
GCCCATCATCGCGGCCACGCAACCCGGTAATCTCTA	50 a.u.
TTATCACCGTAATGGCCCAGATTAATGGCGATCCTT	66.6 a.u.

Sample 4
Target: Sal-like protein 4, full length isoform A (SALL4, Homo sapiens, UniProt Q9UJQ4, residues 1-1053)
Chain of UniProt Q9UJQ4 (whole entry, looked up): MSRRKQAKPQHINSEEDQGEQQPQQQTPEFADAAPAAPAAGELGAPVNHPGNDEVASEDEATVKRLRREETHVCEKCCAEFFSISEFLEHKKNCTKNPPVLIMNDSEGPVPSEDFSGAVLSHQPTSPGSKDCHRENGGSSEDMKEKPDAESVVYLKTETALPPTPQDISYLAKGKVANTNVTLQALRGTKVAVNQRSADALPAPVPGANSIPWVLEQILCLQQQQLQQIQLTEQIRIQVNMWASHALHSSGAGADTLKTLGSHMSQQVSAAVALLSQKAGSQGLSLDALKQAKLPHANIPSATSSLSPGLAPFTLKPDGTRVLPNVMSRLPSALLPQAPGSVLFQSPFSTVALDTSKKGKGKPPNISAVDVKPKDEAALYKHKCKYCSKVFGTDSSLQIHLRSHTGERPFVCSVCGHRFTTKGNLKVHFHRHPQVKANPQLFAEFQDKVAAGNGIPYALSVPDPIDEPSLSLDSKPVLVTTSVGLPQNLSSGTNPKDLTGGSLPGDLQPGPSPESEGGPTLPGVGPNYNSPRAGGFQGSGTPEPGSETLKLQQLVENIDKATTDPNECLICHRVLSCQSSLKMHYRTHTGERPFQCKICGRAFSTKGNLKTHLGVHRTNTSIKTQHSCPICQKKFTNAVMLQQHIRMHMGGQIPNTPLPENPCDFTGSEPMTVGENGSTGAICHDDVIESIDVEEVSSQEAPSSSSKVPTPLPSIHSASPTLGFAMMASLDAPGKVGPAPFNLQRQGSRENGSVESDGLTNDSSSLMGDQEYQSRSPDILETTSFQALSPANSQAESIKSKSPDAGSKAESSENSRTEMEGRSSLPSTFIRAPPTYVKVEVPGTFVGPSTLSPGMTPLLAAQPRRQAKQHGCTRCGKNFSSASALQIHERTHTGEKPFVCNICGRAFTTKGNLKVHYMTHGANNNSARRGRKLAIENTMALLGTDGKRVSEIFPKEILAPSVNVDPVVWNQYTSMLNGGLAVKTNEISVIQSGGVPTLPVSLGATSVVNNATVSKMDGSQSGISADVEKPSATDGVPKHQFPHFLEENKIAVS
Method: universal PBM
Molecule type: double-stranded DNA, one strand shown
Matrix: in vitro
Tested at: 600 nM
Setting: 8-mer, flanks averaged, mean of replicates
Direction: higher = stronger binding
Sequence	E-score
AACAGGCG	-0.166
CTTGGATA	0.0624
ACAAGTGC	-0.082
GAAGGGCA	-0.161
AGGGAGAA	-0.0863
TCAGGCGA	-0.194
CGACATTA	0.197
CCGAGCTA	-0.192

Sample 5
Cell line: HEK-293T/ACE2
Tested at: concentration not given
Time: 16 (unit not given)
Relative to: vehicle
Structure (SMILES)	viability [%]
C#C[C@]1(O)CC[C@H]2[C@@H]3CCC4=Cc5oncc5C[C@]4(C)[C@H]3CC[C@@]21C	104
CCN(CC)CCOC(=O)c1ccc(N)cc1	86.8
Cc1cccc(C)c1OCC(=O)N[C@@H](Cc1ccccc1)[C@@H](O)C[C@H](Cc1ccccc1)NC(=O)[C@H](C(C)C)N1CCCNC1=O	108
Oc1c(Cl)cc(Cl)c2cccnc12	88.1

Some of these lines once more (sample 4):
Sequence	E-score
CTTGGATA	0.0624
ACAAGTGC	-0.082
GAAGGGCA	-0.161
AGGGAGAA	-0.0863
TCAGGCGA	-0.194
